Results from different studies.
Numbered parts are unrelated; each lists some results of a single study.

Block 1 — technique: RNA Bind-n-Seq; molecule type: RNA; medium: in vitro; concentration: 365 nM; relative to: no-protein control; direction: higher = stronger binding
Target: RNA binding protein fox-1 homolog 2, RRM domain, GST-SBP tag (RBFOX2, Homo sapiens, UniProt O43251-10, residues 100-194)
Notes: natural RNA segment, single round, ends assumed
Constant ends, left off below: GGGAGUUCUACAGUCCGACGAUC … UGGAAUUCUCGGGUGCCAA
Residues (chain): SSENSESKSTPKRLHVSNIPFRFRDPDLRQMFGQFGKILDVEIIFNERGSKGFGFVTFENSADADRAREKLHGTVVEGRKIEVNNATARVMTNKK
Under “RBNS enrichment (R)”, `GCUGAGAUGAUUGAACUGAAAGUUCCCAUAGCGUGGAUGAAACCGAGCAGCAGAGCAGCAGGACAUGGCCAACAAAGCGUGCUUUCUGAGGACGUGGAGAGUGGCAGUGA` is recorded as 0.457.
`UACAAGUACAUUUAACAGAUCAUUUAUAAAGCAGGAGUCCAUUUUAACACUUACCGACUUUUUUUGGUUUGGAAACAUAUUACCACGUCUUAAUAGGAUGGUGCCCAUAU` — result for “RBNS enrichment (R)”: 0.627.
For `AGAGCACAGAGGCCAGCCCCUCUGUCUAGAAGGCACAUGCAACUAUGGUGUCUGCAUCUCAGCAGAUCUGGUCUGAGGGAGCGAUUCCUGUGUGGCGCCGUCCAUCUGGC`, “RBNS enrichment (R)” read 0.436.
For `CAAGUACUAUUAUUCCAUACUACUAUAUUCUUCCAAAUAUUUGGAACACUCUUAGAAUUCCCAUUUAAUAAACCAUAUGAGAAAACCCUCUAUUACUCUUACACUUUAGU`, “RBNS enrichment (R)” read 0.666.
`GAUUAUCAUCUUAAGAGAUGCUUAAACAUGGUAAAUCACUUCAUAUUAUGAAAGUUUUACACUUAGUAUUCAUGUUAACAUUGGGUGCAAUAACUUAGUAGUACUUGCUU`: “RBNS enrichment (R)” 0.242.
`ACACGUCCUUUAUUAGAGAUGACCGAGGGGAAGCAGCUGCUGUUUAGCUGACCCCCCACAUGAGAAGACGUUUCUUGAAAUGAGCCCCGGGGGCUCUGGGGUUAGAGCCU` — result for “RBNS enrichment (R)”: 0.281.
`AAGUGAACCAAACUAGUUCUCAGAAUUCUACAGAGAAGGAGGGAAUCAGACUGAGGAAGCUGUGACAUAGGACUUGAAGACCAAAGACUUUGAAAUUUGCGAGCUGCUCA`: “RBNS enrichment (R)” 0.44.
`AACACUUAGCUGGCCACCGCUUUAAUCUGGCCCCUUUGGGAAAGCGAAAAUCCCGAUCACAUUGGACAUCGGCAAAGGCGUGCCAUAAAGAGCGGCCCACAGUCAUGCUA`: “RBNS enrichment (R)” 0.372.
`AUGCAUUGGCCAGAGAGCCCGGGCUGGCUGUGCACAGCAUUCAUGUAGCUGAUUUCUAGCUUUUUUUUUUUUUCUGCCCCACUCCUGAGCAAAUCUGUCUUGCCAAGGAA` — result for “RBNS enrichment (R)”: 1.5.
`GUGGAUAUUGGAGUUGGGUUGAUUUUCCUGAAUUGGUUCCUAUAGGAUCCUCCAAUUUUGGAUCUUCUACAGAUCCCCCAGUGUUCUAGUUUAGUAAACUGGCCCAUUUG`: “RBNS enrichment (R)” 0.271.
For `GUUCCUGGCUGUCUCUGUUCCCUUGCUGUGGGGCUGUGUCCCUCCUUUGGGAGCAUGUGUGGCUAGGGUGUGGCAGCCUUUGUCUGACAUGCAGUAUAGUAGGUCCCUGA`, “RBNS enrichment (R)” read 0.576.
`GUGGCUUCAGGAUCGGGUGUACUGUUCUCAUAACCUUGGGAGGAGAAAGAGAAAGAGAGCGGCUGCUGUAGGGACAGCUCUCUGCCUCUCCUCUCCUGGCUCUACCAGUA`: “RBNS enrichment (R)” 0.451.

Block 2 — technique: aptamer microarray, sandwich; molecule type: DNA with 2'F-ANA; medium: in vitro; concentration: 200 nM; with: Cy3 exosite-II aptamer, 400 nM; direction: higher = stronger binding; strand: GGTTGGTGTGGTTGG
Target: Prothrombin, mature alpha-thrombin (F2, Homo sapiens, UniProt P00734)
Notes: whole 15-mer aptamer, many near background
`2'F-ANA at 2 5 6 8 10 12 14 15`: “mean fluorescence intensity” 76.9 a.u.
For `2'F-ANA at 1 2 4 5 7 8 11 13 14`, “mean fluorescence intensity” read 123 a.u.
Under “mean fluorescence intensity”, `2'F-ANA at 1 3 4 5 8 9 12 13 15` is recorded as 78.3 a.u.
`2'F-ANA at 1 4 9 10 12 13 14 15`: “mean fluorescence intensity” 46.6 a.u.
`2'F-ANA at 1 3 4 8 9 14` — result for “mean fluorescence intensity”: 66 a.u.
Under “mean fluorescence intensity”, `2'F-ANA at 1 2 5 6 12 13 15` is recorded as 74.8 a.u.
Under “mean fluorescence intensity”, `2'F-ANA at 5 6 7 10 12 14 15` is recorded as 44.2 a.u.
For `2'F-ANA at 2 3 4 6 7 8 10 11 12`, “mean fluorescence intensity” read 246 a.u.
`2'F-ANA at 1 3 5 6 8 9 10 12` — result for “mean fluorescence intensity”: 55.1 a.u.
`2'F-ANA at 1 5 10 11 13 14` — result for “mean fluorescence intensity”: 48.3 a.u.
Under “mean fluorescence intensity”, `2'F-ANA at 3 4 6 7 9 11 13 14 15` is recorded as 217 a.u.
For `2'F-ANA at 6 8 9 11 12 14`, “mean fluorescence intensity” read 204 a.u.
`2'F-ANA at 3 4 5 9 12 13 14`: “mean fluorescence intensity” 318 a.u.
`2'F-ANA at 1 2 4 6 7 9 11 15`: “mean fluorescence intensity” 84.6 a.u.
`2'F-ANA at 1 2 4 6 7 9 10` — result for “mean fluorescence intensity”: 49.3 a.u.
For `2'F-ANA at 1 2 3 5 6 11 12 13`, “mean fluorescence intensity” read 85.9 a.u.
`2'F-ANA at 2 3 5 6 7 8 11 13 15`: “mean fluorescence intensity” 73.9 a.u.

Block 3 — technique: competition protein-binding microarray; molecule type: double-stranded DNA, one strand shown; medium: in vitro; concentration: 2 µM; with: Pho4 competitor, 0.05 µM; direction: higher = stronger binding; constant ends, left off below: … GTCTTGATTCGCTTGACGCTGCTG
Target: Centromere-binding protein 1, full length, His-tagged (CBF1, Saccharomyces cerevisiae, UniProt P17106, residues 1-351)
UniProt P17106, sequence (whole entry, looked up): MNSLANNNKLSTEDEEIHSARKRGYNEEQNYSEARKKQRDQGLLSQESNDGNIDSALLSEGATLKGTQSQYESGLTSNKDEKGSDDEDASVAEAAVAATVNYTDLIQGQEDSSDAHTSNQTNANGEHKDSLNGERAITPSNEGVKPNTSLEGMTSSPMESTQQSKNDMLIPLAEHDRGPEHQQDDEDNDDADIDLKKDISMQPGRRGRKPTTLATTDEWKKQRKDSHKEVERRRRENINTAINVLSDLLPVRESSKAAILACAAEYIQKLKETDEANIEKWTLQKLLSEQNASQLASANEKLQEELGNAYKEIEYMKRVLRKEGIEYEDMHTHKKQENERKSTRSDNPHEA
Notes: whole 60-bp probe, lowest competitor level
`ACCGTCGAGCCTCACATCGTGGTCGGGAGAGACTCT` has a fluorescence intensity of 54.6 a.u.
For `TTGGCCTAGCCGGTTCGCGTGTGTTTGTCGCTTTTG`, the fluorescence intensity was 74 a.u.
With `AAGGTATTGATAACCTGCGTGACGGTCTGGTGGAAT` the fluorescence intensity was 79.4 a.u.
The fluorescence intensity of `CGTCCTAGTGATTGTGCGGTGGGTGCCATGAGGAAG` is reported as 90.2 a.u.
The fluorescence intensity of `CATACCCAACCTTGGTAGGTGGGTGAAGATATTTGT` is reported as 57.6 a.u.
`TGCGCAACAACTTGCGGTGTGGGTGTATGTCTAGAA` has a fluorescence intensity of 67.5 a.u.
`TGCAGTCTAAAAACACACGTGTAGGTTTTTTTCCGC` has a fluorescence intensity of 1160 a.u.
`TCGGTCCTTAAAAGTCAGCTGACTGGGGCCGTCGCT` gave a fluorescence intensity of 1310 a.u.
`TCCTTATCTGGCGTACCCGTGCAAACGTTTCCGGGC` gave a fluorescence intensity of 98.4 a.u.
`CTTCTGTAAATTTTTCACGTGGAATGACGCGCCCCG` gave a fluorescence intensity of 429 a.u.
With `GCTAATGCCCATTTGCACGTTCTAATAATGAAGGTC` the fluorescence intensity was 230 a.u.
For `ACATTGACGTATTTTCACGTGATGGGCCTCACTGCG`, the fluorescence intensity was 2070 a.u.
`CCCAATGGTGGCTCACACTTTTAAACTTTCTAAATT` has a fluorescence intensity of 85.5 a.u.
For `AAAGCGGTAATTTGAATTGTGGGTGCAGATATCTAT`, the fluorescence intensity was 79 a.u.
`CAACAACTGCTGATTCTCGTGATGGGAGAAATTAGC` has a fluorescence intensity of 232 a.u.
With `CTGTATGTGTGGCGTCACAAATTAGGGGACTCTGGC` the fluorescence intensity was 83.3 a.u.
With `GAAGCGTATAAAACACACGTGGATTGGGGGTGCTTT` the fluorescence intensity was 794 a.u.
For `CATACCCAACCTTGGTGAGTGGGTGAAGATATTTGT`, the fluorescence intensity was 65.8 a.u.
`CATCAGCATGGTACCCTCGTGTTTTCTGCAGCGAGA` gave a fluorescence intensity of 107 a.u.
The fluorescence intensity of `GTTTAGGATATCGGTATCGTGGGTAAAACTCAACCA` is reported as 74.4 a.u.
For `CGGGGTTAAGTTTGGGGTGTGGGTGGCTTGCAGCAG`, the fluorescence intensity was 64.4 a.u.
The fluorescence intensity of `CTCTGCTGGGGCCCTCACGTGGCCCTGGCATTTGGC` is reported as 821 a.u.
The fluorescence intensity of `GTCTTGTCTCATTGCATTGTGGGTGTCCCCACTTCA` is reported as 93.9 a.u.
`GTACTGAGGTTAACACACGTTGTTGCGTACTCATCA` gave a fluorescence intensity of 97.1 a.u.
With `AATGATCTTGTTTCTCATGTGGGTTCTGACTGGAGC` the fluorescence intensity was 79.9 a.u.

Block 4 — technique: RNA Bind-n-Seq; molecule type: RNA; medium: in vitro; concentration: 200 nM; notes: whole 134-nt RNA, ends assumed; with: 150 mM KCl; relative to: input library; direction: higher = stronger binding
Target: Ras GTPase-activating protein-binding protein 1, full length (G3BP1, Homo sapiens, UniProt Q13283)
UniProt Q13283, sequence (whole entry, looked up): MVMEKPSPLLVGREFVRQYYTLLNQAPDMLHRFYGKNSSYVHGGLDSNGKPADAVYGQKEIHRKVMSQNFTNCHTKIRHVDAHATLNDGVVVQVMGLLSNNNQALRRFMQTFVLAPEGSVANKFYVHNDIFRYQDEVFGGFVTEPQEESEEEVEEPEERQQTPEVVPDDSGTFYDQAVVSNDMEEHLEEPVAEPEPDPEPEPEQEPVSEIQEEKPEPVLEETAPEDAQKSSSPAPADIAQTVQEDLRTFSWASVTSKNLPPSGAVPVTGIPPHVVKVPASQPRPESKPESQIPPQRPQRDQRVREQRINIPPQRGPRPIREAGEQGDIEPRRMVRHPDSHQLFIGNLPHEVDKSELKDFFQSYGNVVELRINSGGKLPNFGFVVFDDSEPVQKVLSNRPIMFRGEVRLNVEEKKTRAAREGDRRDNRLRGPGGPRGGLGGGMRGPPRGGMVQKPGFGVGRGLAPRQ
Constant ends, left off below: GGGAGUUCUACAGUCCGACGAUC … UGGAAUUCUCGGGUGUCAAGG
`GGUGCGGCUCUAUGAGUGGACAACAGAGAAGGAGCUGCGCACUGAGUGCAACCACUACAACAACAUCAUGGCCCUCUACCUGAAGACCAA` gave a log2 enrichment of 0.112.
With `UUGGACUAUGGAUCAGGUACUGUGCUCAGCAUCAGAAAAUGGGAUGACAAUGAACAGAGUAACAGGACUAUAUUUCUGAAAAAGGAUGAA` the log2 enrichment was -0.349.
With `UGUGCUACACAUCGUAUGUACCGAAUCGGGUUUUUUUGGGGUUUUUUUGGGGUUUUUUUGGGAAAGUAUUAUGUUACGCCGUUCGGAUCU` the log2 enrichment was -0.777.
`AGUCCUGUGCUACACAUCGUAUGUACCGAAUCGGAAAAAGGAAAAAAAGGUUUUUGGAAAGUAUUAUGUUACGCCGUUCGGAUCUGCACU` gave a log2 enrichment of -1.74.
The log2 enrichment of `CACAGACAACACGCACCCACACAGACACAGAGGGAAGGGGUUGGGAUGGGGACAGGGUGCACAGCCGGGCGGGGUAGGACCCCAGCCCCU` is reported as 1.85.
For `AAGUCCUGUGCUACACAUCGUAUGUACCGAAUCGGGGUUUGGGUUUGGGGUUUGGGGAAAGUAUUAUGUUACGCCGUUCGGAUCUGCACU`, the log2 enrichment was 0.294.
The log2 enrichment of `CCUGUGCUACACAUCGUAUGUACCGAAUCGGCCCCCCCGGGCCCCCCCGGGCCCCCCCGGAAAGUAUUAUGUUACGCCGUUCGGAUCUGC` is reported as -0.123.
`GUCCUGUGCUACACAUCGUAUGUACCGAAUCGGAAAAAAAGGAAAAAAAGGUUUUUGGAAAGUAUUAUGUUACGCCGUUCGGAUCUGCAC` gave a log2 enrichment of -1.47.
With `CUCAAGUCCUGUGCUACACAUCGUAUGUACCGAAUCGGGUUUGGUUUGGUUUGGAAAGUAUUAUGUUACGCCGUUCGGAUCUGCACUUCC` the log2 enrichment was -0.422.
For `ACCAUGCAGGUGGGCAUCUUAAAGAAGUGGGGCAAGGGGGGGAUAGGGAGGGGGGUAACACUUUGGGAACAGGUGGUCCCAGGUCGUUUC`, the log2 enrichment was 1.37.
With `GUCCUGUGCUACACAUCGUAUGUACCGAAUCGGGGUUUUGGGUUUUGGGGUUUUGGGGAAAGUAUUAUGUUACGCCGUUCGGAUCUGCAC` the log2 enrichment was 0.123.
The log2 enrichment of `CUGUGCUACACAUCGUAUGUACCGAAUCGGGUUUUUUUGGGGUUUUUUUGGGUUUUUUUGGAAAGUAUUAUGUUACGCCGUUCGGAUCUG` is reported as -0.749.
The log2 enrichment of `CCUCAAGUCCUGUGCUACACAUCGUAUGUACCGAAUCGGUUGGUUGGGUUGGAAAGUAUUAUGUUACGCCGUUCGGAUCUGCACUUCCAG` is reported as -0.277.
The log2 enrichment of `AGUCCUGUGCUACACAUCGUAUGUACCGAAUCGGGAAAAGGGGAAAAGGGAAAAGGGGAAAGUAUUAUGUUACGCCGUUCGGAUCUGCAC` is reported as 0.204.

A few entries again (block 3):
`TCCTTATCTGGCGTACCCGTGCAAACGTTTCCGGGC` gave a fluorescence intensity of 98.4 a.u.
`CTTCTGTAAATTTTTCACGTGGAATGACGCGCCCCG` gave a fluorescence intensity of 429 a.u.
With `GCTAATGCCCATTTGCACGTTCTAATAATGAAGGTC` the fluorescence intensity was 230 a.u.
For `ACATTGACGTATTTTCACGTGATGGGCCTCACTGCG`, the fluorescence intensity was 2070 a.u.
